Experimental data gathered from unrelated publications.
Numbered parts are unrelated; each lists some results of a single study. Changes are numbered by the printed parent chain.

Sample 1 — technique: protein-binding microarray; molecule type: double-stranded DNA, one strand shown; medium: in vitro; concentration: 2200 nM top; setting: 60-bp whole probe; together with: salmon DNA 0.4 mg/ml; baseline: random background probes; reading: higher = stronger binding; endpoint: fitted relative affinity; constant ends, left off below: GCCTAGCAC … GTCTTGATTCGCTTGACGCTGCTG
Target: Interferon regulatory factor 7, full length, phosphomimetic (IRF7, Homo sapiens, UniProt Q92985, residues 1-503, S471D/S472D/S475D/S476D/S477D/S483D/S484D/S487D)
Construct (chain): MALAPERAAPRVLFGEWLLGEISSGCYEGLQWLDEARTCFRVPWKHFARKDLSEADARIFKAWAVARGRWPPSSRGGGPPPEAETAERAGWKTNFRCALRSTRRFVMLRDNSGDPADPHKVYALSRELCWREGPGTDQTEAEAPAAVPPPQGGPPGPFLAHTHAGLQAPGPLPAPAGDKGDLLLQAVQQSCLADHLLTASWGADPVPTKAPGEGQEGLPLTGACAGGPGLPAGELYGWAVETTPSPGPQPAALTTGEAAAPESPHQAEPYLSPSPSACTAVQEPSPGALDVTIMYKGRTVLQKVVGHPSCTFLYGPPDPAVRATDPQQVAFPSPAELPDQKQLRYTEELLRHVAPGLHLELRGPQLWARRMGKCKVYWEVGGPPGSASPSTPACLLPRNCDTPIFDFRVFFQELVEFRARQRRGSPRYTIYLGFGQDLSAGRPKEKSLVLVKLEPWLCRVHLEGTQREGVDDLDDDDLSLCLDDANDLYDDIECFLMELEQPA
Oligonucleotide = GACGGACTGGGGTATCCGGACGTGCTA; result = -0.712 z-score
Oligonucleotide = GACGCTATCGGTTTCGGGACGTGCTAG; result = 4.37 z-score
Oligonucleotide = GACGGACGGCTACTGCTGACGTGCTAG; result = -0.874 z-score
Oligonucleotide = TTAGAACTGAGTGTCGATTAGTGCTAG; result = -0.477 z-score
Oligonucleotide = TTAGGTATCGGACTGGGTTTGTGCTAG; result = 0.187 z-score
Oligonucleotide = GACGGCCTCCTTATCCTGACGTGCTAG; result = 0.647 z-score
Oligonucleotide = GACGATTTCAGTATCGATACGTGCTAG; result = 1.25 z-score
Oligonucleotide = TTAGGACAGCTTTTCCTTTAGTGCTAG; result = 0.707 z-score
Oligonucleotide = TTAGAACTGGGGACTGGATGAGTGCTA; result = -0.454 z-score
Oligonucleotide = TTAGATCTCAGTCTAGATTAGTGCTAG; result = -0.235 z-score
Oligonucleotide = GACGGTTTCGGTTCAGGGACGTGCTAG; result = 13 z-score
Oligonucleotide = TTAGGACTGGGTATCGGTGAGTGCTAG; result = -0.762 z-score
Oligonucleotide = TTAGGTTTCGTCTTTCGGTTAGTGCTA; result = 8.41 z-score
Oligonucleotide = TTAGATTTCGGGACTCGATTAGTGCTA; result = 1.62 z-score
Oligonucleotide = ATATATATTCATATATATATGTGCTAG; result = 0.799 z-score

Sample 2 — technique: RNA Bind-n-Seq; molecule type: RNA; medium: in vitro; concentration: 200 nM; setting: whole 134-nt RNA, ends assumed; together with: 150 mM LiCl; baseline: input library; reading: higher = stronger binding; endpoint: log2 enrichment; all molecules: 7-deaza-guanosine replaces G
Target: Ras GTPase-activating protein-binding protein 1, full length (G3BP1, Homo sapiens, UniProt Q13283)
Chain of UniProt Q13283 (whole entry, looked up): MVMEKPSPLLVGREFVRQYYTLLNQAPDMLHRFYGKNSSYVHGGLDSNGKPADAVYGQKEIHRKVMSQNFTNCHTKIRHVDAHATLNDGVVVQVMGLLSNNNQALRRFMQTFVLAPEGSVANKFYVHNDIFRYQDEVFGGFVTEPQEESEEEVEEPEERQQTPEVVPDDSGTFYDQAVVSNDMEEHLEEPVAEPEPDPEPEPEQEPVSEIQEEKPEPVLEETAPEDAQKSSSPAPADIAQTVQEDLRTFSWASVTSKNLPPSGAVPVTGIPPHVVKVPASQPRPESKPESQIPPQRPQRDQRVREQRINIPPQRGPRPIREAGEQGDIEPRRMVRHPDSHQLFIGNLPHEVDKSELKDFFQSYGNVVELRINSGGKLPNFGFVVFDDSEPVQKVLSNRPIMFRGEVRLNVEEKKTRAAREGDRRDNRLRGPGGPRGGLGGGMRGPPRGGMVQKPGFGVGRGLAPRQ
Constant ends, left off below: GGGAGUUCUACAGUCCGACGAUC … UGGAAUUCUCGGGUGUCAAGG
Oligonucleotide = AAGUCCUGUGCUACACAUCGUAUGUACCGAAUCGGUUUUUUUGGAAAGGAAAAAGGAAAGUAUUAUGUUACGCCGUUCGGAUCUGCACUU; result = -1.35
Oligonucleotide = AGUCCUGUGCUACACAUCGUAUGUACCGAAUCGGAAAAAGGGAAAAAGGGGAAAAAGGAAAGUAUUAUGUUACGCCGUUCGGAUCUGCAC; result = -0.714
Oligonucleotide = UGCUGAAGCUCACACCCGUGGACCACCCAGACUGCCUGCCGCUACAGGAUGCCCUCCGCAUCUCCCAGGACUUCUUUCCGGCAUCAGUGU; result = -0.843
Oligonucleotide = AAGUCCUGUGCUACACAUCGUAUGUACCGAAUCGGAAAGGUUUUUGGUUUUUUUGGAAAGUAUUAUGUUACGCCGUUCGGAUCUGCACUU; result = -1.75
Oligonucleotide = CCUGUGCUACACAUCGUAUGUACCGAAUCGGGGAAAAAAAGGAAAAAAAGGAAAAAAAGGAAAGUAUUAUGUUACGCCGUUCGGAUCUGC; result = -0.134
Oligonucleotide = ACCAUGCAGGUGGGCAUCUUUGGGAAGUGGGGCAAGGGGGGGAUAGGGAGGGGGGUAAUACUUUGGGAACAGGUGGUCCCAGGUCGUUUC; result = 0.254
Oligonucleotide = CUCAAGUCCUGUGCUACACAUCGUAUGUACCGAAUCGGGGUGGUGGGGUGGGGAAAGUAUUAUGUUACGCCGUUCGGAUCUGCACUUCCA; result = -0.677
Oligonucleotide = AAGUCCUGUGCUACACAUCGUAUGUACCGAAUCGGAGGAAAAAAAGGAAAAAAAGGAAAGUAUUAUGUUACGCCGUUCGGAUCUGCACUU; result = -0.573
Oligonucleotide = AGUCCUGUGCUACACAUCGUAUGUACCGAAUCGGGGAAAGGGGUUUUUGGGGAGGGGAAAGUAUUAUGUUACGCCGUUCGGAUCUGCACU; result = -0.397

Sample 3 — technique: DHFR PCA, deep sequencing; medium: yeast; together with: (+)-ABA 17 µM; baseline: wild-type fitted maximum; reading: higher = stronger binding; endpoint: relative binding score
Target: ABI1, truncated, D143A, DHFR fusion (Arabidopsis thaliana)
Setting: methotrexate growth selection, single substitutions
Parent: PYL1, truncated, DHFR fusion (Arabidopsis thaliana); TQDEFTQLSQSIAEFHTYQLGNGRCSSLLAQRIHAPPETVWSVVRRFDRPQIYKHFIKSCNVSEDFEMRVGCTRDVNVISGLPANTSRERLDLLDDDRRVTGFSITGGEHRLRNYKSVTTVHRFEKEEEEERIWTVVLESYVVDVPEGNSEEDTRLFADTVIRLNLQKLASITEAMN
Change = N114P; result = -6.78%
Change = E14Q; result = 78.3%
Change = V62F; result = 55.5%
Change = P36C; result = 71.6%
Change = L28M; result = 82.5%
Change = R32Y; result = 74%
Change = P83C; result = 12.5%
Change = Q167R; result = 92.4%
Change = K116N; result = 51.3%
Change = G23M; result = 65.3%
Change = I162P; result = 3.5%
Change = S26D; result = 22.3%
Change = R45M; result = 4.58%
Change = K116F; result = 5.55%
Change = R24M; result = 77.9%
Change = D159I; result = -24.1%
Change = N77E; result = 92.2%
Change = E139M; result = 53.5%
Change = A175G; result = 89.7%
Change = D153F; result = 0.572%
Change = N177D; result = 95.2%
Change = T106K; result = 44.6%
Change = S104V; result = 11.3%

Sample 4 — technique: RNA Bind-n-Seq; molecule type: RNA; medium: in vitro; concentration: 365 nM; baseline: no-protein control; reading: higher = stronger binding; endpoint: RBNS enrichment (R)
Target: RNA binding protein fox-1 homolog 2, RRM domain, GST-SBP tag (RBFOX2, Homo sapiens, UniProt O43251-10, residues 100-194)
Setting: natural RNA segment, single round, ends assumed
Constant ends, left off below: GGGAGUUCUACAGUCCGACGAUC … UGGAAUUCUCGGGUGCCAA
Construct (chain): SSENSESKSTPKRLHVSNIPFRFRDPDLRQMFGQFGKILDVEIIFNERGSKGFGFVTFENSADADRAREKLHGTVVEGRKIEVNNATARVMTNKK
Oligonucleotide = GGCCAACAUGGGCUUCUGAACCCUUCAGGCAGGGACAGUUCUAUUGCUGUCCCUACAAUAUAUAAGGUGACUUCUGGCCAUGCUGCCCUGCCAUUGGCGGCUCUGUGUGU; result = 0.218
Oligonucleotide = UGUGGGGGAGGAGGAGAGGUCUCCAUGUGACACAUGGGCUCAGGGCUGCCAGAAUCAGCGGAUGCUGGAUGGGCCUGCAGAAACAACACUCACCACACACACUUCCUUCA; result = 0.369
Oligonucleotide = AAAGUCCUCCUGGUUCCUGGGCCUGAGAAGGAGACCUAGGGCCAGAGGGCUGAGGGCCCUGGAGAGCCGGGGAGGGAGAAGAUGGGAAGUCCUGUCGUGUUGCCCACCAG; result = 0.269
Oligonucleotide = UAAUGUGAUUUCAGAUGGUCAUCUGGAUUCUCCCACUUCUCUACUCCAUUAUUUCUCUACUUUUCCUUCCAGCAAACCUGAAACGUGAGGGAGAUGGAUUAAUGUGAGUA; result = 0.226
Oligonucleotide = AAUUGAUUGAUACCUCAGUUUAAUUCAGAGAGGUUCGCUAAGUGUUGGAUUCUAGUUGUGGUUUGAAUGCAGCAGUGUACUCUUGAAGUAAGCAGGCAAGGGUCACUGCA; result = 2.97
Oligonucleotide = CCCUCACCAAAACUCACACAGUUGCGAGAAGAGCUGCUGUCUGUGGACACGUAGAGAAAGGACAUUCAUGACAUCCCUGUGGUGUGGUUAAUGUGCGACGUGUCGCCCAA; result = 0.243
Oligonucleotide = GGGUCUCAGCUCCUGGAGUCGCAGGCCCUUGGGGCCCCUCUGUGAGAUCUCAAUGCUGUCUGGGGACCCUAAGAGUUUUCUCACCUGUUCAGUCUCAUCUAACCUUCCAA; result = 0.422
Oligonucleotide = UUAACAAACAUUAGCUGCUCCACCUAUGUAGAGUAUAUCAUGUGAGGUUGUUGCUUUGAAUAUCAAUCAGAAAAUCCACAUCUGAAGACAAAUUUGAACCCCAUUUUAGA; result = 0.349
Oligonucleotide = AAAUACUAAACGCCAAGAGUUGAGCCUGUGGGUCUCUCCAUAAGAGUUUUAAAACUCUUGCCAGUUACCACUUUAUCCAAUUUGCUAUCAUUUUCGUAUUAUCAGCUAUC; result = 0.616
Oligonucleotide = CAAAGUGACUGUUUGGCUUAUAAACACAUUGAAUGCGCUUUAUUGCCCAUGGGAUAUGUGGUGUAUAUCCUUCCAAAAAAUUAAAACGAAAAUAAAGUAGCUGCGAUUGG; result = 0.65
Oligonucleotide = CUUUUUCUACUGUUCAUUUUAUUCUGUGGCCUUUCAGUGUAAUAAACUGAAAUCAUGACUUUCACAACUGUGUUGAGUUCAUUGGGUCCUUGUCGUGUCCUUUGAAGCAU; result = 0.419
Oligonucleotide = GUCUUGAAUCAGACUCAGAAAUGGCUUCUUCCCAGCCCUGCCUACAAGUUUUUCUCUGGGGUCCUCUUUCAAGGAUGUCCACGGUACCUUCCUCCUGAAACUUGAGGAAG; result = 0.361

Repeated from above (sample 4):
Oligonucleotide = CCCUCACCAAAACUCACACAGUUGCGAGAAGAGCUGCUGUCUGUGGACACGUAGAGAAAGGACAUUCAUGACAUCCCUGUGGUGUGGUUAAUGUGCGACGUGUCGCCCAA; result = 0.243
Oligonucleotide = AAAGUCCUCCUGGUUCCUGGGCCUGAGAAGGAGACCUAGGGCCAGAGGGCUGAGGGCCCUGGAGAGCCGGGGAGGGAGAAGAUGGGAAGUCCUGUCGUGUUGCCCACCAG; result = 0.269
Oligonucleotide = GGCCAACAUGGGCUUCUGAACCCUUCAGGCAGGGACAGUUCUAUUGCUGUCCCUACAAUAUAUAAGGUGACUUCUGGCCAUGCUGCCCUGCCAUUGGCGGCUCUGUGUGU; result = 0.218
Oligonucleotide = UUAACAAACAUUAGCUGCUCCACCUAUGUAGAGUAUAUCAUGUGAGGUUGUUGCUUUGAAUAUCAAUCAGAAAAUCCACAUCUGAAGACAAAUUUGAACCCCAUUUUAGA; result = 0.349
Oligonucleotide = UGUGGGGGAGGAGGAGAGGUCUCCAUGUGACACAUGGGCUCAGGGCUGCCAGAAUCAGCGGAUGCUGGAUGGGCCUGCAGAAACAACACUCACCACACACACUUCCUUCA; result = 0.369
Oligonucleotide = GGGUCUCAGCUCCUGGAGUCGCAGGCCCUUGGGGCCCCUCUGUGAGAUCUCAAUGCUGUCUGGGGACCCUAAGAGUUUUCUCACCUGUUCAGUCUCAUCUAACCUUCCAA; result = 0.422
Oligonucleotide = AAAUACUAAACGCCAAGAGUUGAGCCUGUGGGUCUCUCCAUAAGAGUUUUAAAACUCUUGCCAGUUACCACUUUAUCCAAUUUGCUAUCAUUUUCGUAUUAUCAGCUAUC; result = 0.616
Oligonucleotide = CAAAGUGACUGUUUGGCUUAUAAACACAUUGAAUGCGCUUUAUUGCCCAUGGGAUAUGUGGUGUAUAUCCUUCCAAAAAAUUAAAACGAAAAUAAAGUAGCUGCGAUUGG; result = 0.65
Oligonucleotide = UAAUGUGAUUUCAGAUGGUCAUCUGGAUUCUCCCACUUCUCUACUCCAUUAUUUCUCUACUUUUCCUUCCAGCAAACCUGAAACGUGAGGGAGAUGGAUUAAUGUGAGUA; result = 0.226
Oligonucleotide = CUUUUUCUACUGUUCAUUUUAUUCUGUGGCCUUUCAGUGUAAUAAACUGAAAUCAUGACUUUCACAACUGUGUUGAGUUCAUUGGGUCCUUGUCGUGUCCUUUGAAGCAU; result = 0.419
